Results of several laboratories.
Every numbered part comes from another study and shows a few of its results, in no order. Changes are numbered by the printed parent chain.
Sequence of UniProt Q9BY78 (whole entry, looked up): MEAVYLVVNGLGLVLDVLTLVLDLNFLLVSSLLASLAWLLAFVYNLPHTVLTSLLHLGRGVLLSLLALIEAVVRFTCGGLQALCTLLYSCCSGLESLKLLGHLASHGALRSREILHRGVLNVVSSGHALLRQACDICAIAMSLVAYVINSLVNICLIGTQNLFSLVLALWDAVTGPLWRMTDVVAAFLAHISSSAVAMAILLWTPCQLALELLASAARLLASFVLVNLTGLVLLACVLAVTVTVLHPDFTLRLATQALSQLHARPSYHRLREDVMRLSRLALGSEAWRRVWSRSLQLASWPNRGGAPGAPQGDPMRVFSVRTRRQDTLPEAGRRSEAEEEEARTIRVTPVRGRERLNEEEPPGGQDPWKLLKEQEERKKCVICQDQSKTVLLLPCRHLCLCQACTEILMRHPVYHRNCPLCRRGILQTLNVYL
Sequence of UniProt Q9UNE7 (whole entry, looked up): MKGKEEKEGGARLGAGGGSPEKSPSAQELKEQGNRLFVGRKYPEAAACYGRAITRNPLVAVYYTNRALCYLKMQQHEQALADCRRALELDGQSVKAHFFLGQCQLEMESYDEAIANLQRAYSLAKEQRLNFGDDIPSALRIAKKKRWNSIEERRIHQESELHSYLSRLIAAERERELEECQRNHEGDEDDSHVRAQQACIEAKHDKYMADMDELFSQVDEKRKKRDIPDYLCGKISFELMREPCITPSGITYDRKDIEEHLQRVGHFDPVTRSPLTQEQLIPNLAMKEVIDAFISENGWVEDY

Set 1 — technique: RNA Bind-n-Seq; molecule type: RNA; matrix: in vitro; tested at: not given; relative to: input RNA pool; reading: higher = stronger binding
Target: RING finger protein unkempt homolog, zinc fingers 1-6, GST-SBP tag (UNK, Homo sapiens, UniProt Q9C0B0, residues 30-357)
Sequence of UniProt Q9C0B0 (30-357, looked up): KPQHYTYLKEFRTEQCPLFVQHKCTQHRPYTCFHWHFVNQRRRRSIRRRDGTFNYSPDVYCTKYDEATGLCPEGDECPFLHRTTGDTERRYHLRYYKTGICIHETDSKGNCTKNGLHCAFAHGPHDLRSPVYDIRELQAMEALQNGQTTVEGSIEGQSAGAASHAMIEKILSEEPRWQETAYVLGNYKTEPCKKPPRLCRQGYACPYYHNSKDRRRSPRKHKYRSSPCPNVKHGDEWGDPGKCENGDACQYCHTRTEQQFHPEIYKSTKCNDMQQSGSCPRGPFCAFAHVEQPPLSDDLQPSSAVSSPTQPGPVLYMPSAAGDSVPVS
Setting: RNA with constant flanks, human and mouse sites, ends assumed
All sequences stand within: GGGAGUUCUACAGUCCGACGAUC … CAACAGAGGAUUGAGCAUCA
With `AGUGAAUGGAAGAGACGUGAUGAAGAGCGAAGGCGUGAGCUGGAGGCUCGGAGGCGACGGGAGCAGGAGGAAGAGCUCCGGAGACUUCGAGAACAGGAGAGGGAGGAGAAGGAGCGGCGC` the bound/input enrichment was 0.358 ratio.
`UGUGAUCAUGCCAAUCCACAGCUUUCAAAUCCAAGUCCGUUUCAGACACUUGGGCUGGAUUUAGUAUUGGAAUGUGUCGCUAGGUACCAACCCAAGCAGCGUUCAAUGUUUACCUUUGUG` has a bound/input enrichment of 0.161 ratio.
The bound/input enrichment of `ACUGCAGAUCAGAUCAGUUCUCUUUGUGGAUUAUAUUUUCAGUAAAAUGUAUGGAUCUAUCUUUUCCUUGUUCUUAUAUCUAGAUCAUGAGACUUGACUGAGGCUGUAUCCUUAUCCUCC` is reported as 0.193 ratio.
With `AUUAAGCACCUGAAGGAAGAAAAUGAGAAGCUGAAUGGGUUCCUAGAACAUGAGCGGUGUAAUAAUAGUGUGAUGGCCAAAACUCUGGAGGAAUGUCGAGUUACCUUGGAAGGCUUGAAA` the bound/input enrichment was 0.944 ratio.
With `GUGAUUAUUGAAGAGUCUCAGCCACAAAAAAUAAAGAUGCUGUUAGAGAAAUUUGUUGAAGAAUGCAAGUUCCCUCCAGUGCCAGAUGCCAUUUGUUGCUAUCAGAAGUGCCAUGGAUAU` the bound/input enrichment was 0.295 ratio.
For `GCCCAGGCAGCGGCGGCGGCGGCGGCGGUUCCUCUCGGGUUACGGUGAAGAAUGUCAGCCACUAGCGUGGAUCAGAGACCUAAAGGGCAAGGAAAUAAAGUUUCAGUACAAAAUGGUUCG`, the bound/input enrichment was 0.147 ratio.
The bound/input enrichment of `UCUGGAAGUGGAAUCCUUACUGCAUGUUUUGCACGUAUGGUUGGAUGUACUGGAAAAGUCAUAGGAAUUGAUCACAUUAAAGAGCUAGUAGAUGACUCAGUAAAUAAUGUCAGGAAGGAC` is reported as 2.44 ratio.
`AAGAUGAAGCUGAUGGAAAAUCUGAAUACUUUAGACCUUCAAAACAAUGACCUUUUGCAGAUUCCCCCAGAGCUUGGGAACUGUGUGCAGCUACGGACACUACUGCUAGAUGGAAAUCCA` has a bound/input enrichment of 0.261 ratio.

Set 2 — technique: competition protein-binding microarray; molecule type: double-stranded DNA, one strand shown; matrix: in vitro; tested at: 2 µM; added: Pho4 competitor, 0.05 µM; reading: higher = stronger binding; all sequences stand within: … GTCTTGATTCGCTTGACGCTGCTG
Target: Centromere-binding protein 1, full length, His-tagged (CBF1, Saccharomyces cerevisiae, UniProt P17106, residues 1-351)
Sequence of UniProt P17106 (whole entry, looked up): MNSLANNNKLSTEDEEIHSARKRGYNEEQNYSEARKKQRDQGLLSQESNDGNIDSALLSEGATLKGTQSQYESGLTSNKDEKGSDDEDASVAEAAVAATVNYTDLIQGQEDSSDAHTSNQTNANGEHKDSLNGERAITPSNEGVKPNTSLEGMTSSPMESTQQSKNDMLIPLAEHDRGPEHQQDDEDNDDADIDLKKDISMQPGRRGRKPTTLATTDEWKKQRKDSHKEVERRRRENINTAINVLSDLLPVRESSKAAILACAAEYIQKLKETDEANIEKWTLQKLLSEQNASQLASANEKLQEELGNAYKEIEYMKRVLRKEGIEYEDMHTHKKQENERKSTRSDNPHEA
Setting: whole 60-bp probe, lowest competitor level
`CATACCCAACCTTGAGTCGTGGGTGAAGATATTTGT` gave a fluorescence intensity of 70.6 a.u.
For `CTCCACCTCGACCATCACGTCCACTTTGCTGCTAAC`, the fluorescence intensity was 78 a.u.
`CGTCCTAGCGATTGAGAGGTGGGTGCCATGAGGAAG` has a fluorescence intensity of 78.5 a.u.
`CATACCCAACCTTGTCACTGCACTTAAGATATTTGT` has a fluorescence intensity of 94.5 a.u.
With `GCAATACTTATTTTTGAAGCCGGATCCCTAATTGCT` the fluorescence intensity was 71.5 a.u.
With `CTTCTGTAAATTTGGAATGTGGGTGGACGCGCCCCG` the fluorescence intensity was 88.9 a.u.
`ATCCTGAGAAGTTAGCATGTGCTATCGTTGAAGCCA` has a fluorescence intensity of 148 a.u.
The fluorescence intensity of `TAGGGGCACTCTAACCTCGTGTAACGCGTAACCTTC` is reported as 78.7 a.u.

Set 3 — target: CCNB2, cyclin fold, Cln2 fusion (human); technique: yeast growth competition, sequencing; matrix: yeast; setting: strong parent motif; relative to: not given; reading: higher = stronger binding
Starting sequence: viral docking peptide; YKVKRRLVFGADD; partner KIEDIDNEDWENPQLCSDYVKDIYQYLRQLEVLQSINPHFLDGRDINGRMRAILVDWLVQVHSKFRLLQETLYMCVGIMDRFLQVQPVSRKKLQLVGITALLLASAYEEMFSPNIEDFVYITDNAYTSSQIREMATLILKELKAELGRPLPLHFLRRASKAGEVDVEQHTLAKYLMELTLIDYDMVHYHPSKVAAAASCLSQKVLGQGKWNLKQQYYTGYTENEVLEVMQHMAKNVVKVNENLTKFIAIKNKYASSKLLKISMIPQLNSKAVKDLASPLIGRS
Under “normalised enrichment score”, `YKVKKRLVFGADD [R5K]` is recorded as 0.908.
`YKVKRRLVFLADD [G10L]` — result for “normalised enrichment score”: 1.45.
Under “normalised enrichment score”, `YKVARRLVFGADD [K4A]` is recorded as 0.411.
`YKVKCRLVFGADD [R5C]`: “normalised enrichment score” 0.918.
`YKVKRRLRFGADD [V8R]`: “normalised enrichment score” 0.809.
`YKVKRRNVFGADD [L7N]` — result for “normalised enrichment score”: 0.813.
`YKSKRRLVFGADD [V3S]` — result for “normalised enrichment score”: 0.582.
`YKAKRRLVFGADD [V3A]` — result for “normalised enrichment score”: 0.16.
Under “normalised enrichment score”, `YKVKRRLVFGACD [D12C]` is recorded as 0.837.
Under “normalised enrichment score”, `YKVKRFLVFGADD [R6F]` is recorded as 0.417.
`YKVKRRLVFNADD [G10N]` — result for “normalised enrichment score”: 1.79.
Under “normalised enrichment score”, `YKVKRRLVFGAMD [D12M]` is recorded as 1.27.
`YKVKRRLVFWADD [G10W]`: “normalised enrichment score” 1.2.
`YKVKRRLVFSADD [G10S]` — result for “normalised enrichment score”: 1.58.
`YKVQRRLVFGADD [K4Q]` — result for “normalised enrichment score”: 1.14.
`YKVKMRLVFGADD [R5M]`: “normalised enrichment score” 0.821.
Under “normalised enrichment score”, `YKVKRRLVFGAYD [D12Y]` is recorded as 1.21.
`YKVKRRFVFGADD [L7F]`: “normalised enrichment score” 0.613.
For `YKVRRRLVFGADD [K4R]`, “normalised enrichment score” read 2.44.
For `YKVKRRLVFGYDD [A11Y]`, “normalised enrichment score” read 1.66.
For `YKVKRRLLFGADD [V8L]`, “normalised enrichment score” read 1.21.
Under “normalised enrichment score”, `YKVKRRLVEGADD [F9E]` is recorded as 0.121.
For `YKVKRRLVFGASD [D12S]`, “normalised enrichment score” read 1.18.

Set 4 — target: UBE2W UBC core domain (UniProt Q96B02); technique: yeast two-hybrid; matrix: yeast; setting: mostly zero background; relative to: not given; reading: higher = stronger interaction
Sequence of UniProt Q96B02 (whole entry, looked up): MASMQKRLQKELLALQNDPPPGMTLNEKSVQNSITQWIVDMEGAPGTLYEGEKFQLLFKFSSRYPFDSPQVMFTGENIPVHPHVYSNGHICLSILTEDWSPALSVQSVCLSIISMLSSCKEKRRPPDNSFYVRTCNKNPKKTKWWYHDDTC
`RNF167 RING domain (UniProt Q9H6Y7)` — result for “lacZ reporter activity”: 4090.
Under “lacZ reporter activity”, `RNF26 RING domain (UniProt Q9BY78)` is recorded as 9500.
`STUB1 RING domain (UniProt Q9UNE7)` — result for “lacZ reporter activity”: 0.

Single results of other studies — technique: cross-linking MS
For `GTF2A2 (Homo sapiens, UniProt P52657)`, cross-linked residues read “E86 to K952” (HERC5 (Homo sapiens, UniProt Q9UII4); cell fractions; added: DMTMM).
`RRS1 (Homo sapiens, UniProt Q15050)`: cross-linked residues “K265 to T1307” (KIF14 (Homo sapiens, UniProt Q15058); cell fractions; added: DSSO).
`BCAS2 (Homo sapiens, UniProt O75934)`: interaction screen “cross-linked” (CDC5L (Homo sapiens, UniProt Q99459); hits only).
For `EIF4A1 (Homo sapiens, UniProt P60842)`, cross-linked residues read “K369 to K206” (EIF4G2 (Homo sapiens, UniProt P78344); cell fractions; added: DSSO).

Excerpt of the above (set 1):
With `AGUGAAUGGAAGAGACGUGAUGAAGAGCGAAGGCGUGAGCUGGAGGCUCGGAGGCGACGGGAGCAGGAGGAAGAGCUCCGGAGACUUCGAGAACAGGAGAGGGAGGAGAAGGAGCGGCGC` the bound/input enrichment was 0.358 ratio.
`UGUGAUCAUGCCAAUCCACAGCUUUCAAAUCCAAGUCCGUUUCAGACACUUGGGCUGGAUUUAGUAUUGGAAUGUGUCGCUAGGUACCAACCCAAGCAGCGUUCAAUGUUUACCUUUGUG` has a bound/input enrichment of 0.161 ratio.
